Experimental data from different studies.
Protocols differ between the studies behind these lines. ± gives the spread as reported.

| SMILES | test | system | conditions | how to read | measurement | value |
| --- | --- | --- | --- | --- | --- | --- |
| Cc1ccc(C2=C(c3ccc([18F])cc3)C(=O)OC2(C)C)cc1 | PET/CT | mouse, SK-OV-3/COX-1 peritoneal tumour | retro-orbital, 5 min |  | normalized tumour uptake | 25 ± 6 |
| COc1ccc2c(c1OC)C(C(Cl)(Cl)Cl)N1CCc3cc4c(cc3C1=C2)OCO4 (stereo not shown) |  | rat, STZ-induced diabetic, serum | oral, 12 mg/kg, day 28 |  | urea | 43.2 ± 1.66 mg/dL |
| COC(=O)C(Cc1c[nH]cn1)NC(=O)C1(C)C(O)CCC2(C)C1CCC1(C)C2CC=C2C3C(C)C(C)CCC3(C)CCC21C (stereo not shown) |  | rat TNBS-induced colitis | oral, dose not given, day 7 | direction not given | clinical activity score | 2.66 ± 0.57 |
| CCN(CC)CCn1nc(C23CC4CC(CC(C4)C2)C3)n(C)c1=S | paw oedema | rat | intraperitoneal, 40 mg/kg |  | inhibition in vivo | 29.5% |
| O=c1c(OCc2ccccc2)c(-c2ccc([N+](=O)[O-])cc2)oc2ccccc12 |  | diabetic rat | 7.5 mg/kg, day 21, p-nitrophenyl β-glucoside induced |  | blood glucose | 199 ± 4.8 mg/dL |
| O=C1c2c(O)cc3oc4cc(O)c(O)cc4c3c2OC1Cc1ccccc1 (stereo not shown) | DPPH scavenging, absorbance |  |  |  | EC50 | 130 µM |
| N#Cc1cc(C(=O)OCC[18F])c(C(F)(F)F)nc1N1CCN(C(=O)Cc2ccccc2)CC1 | PET | human, contralateral normal brain |  |  | SUVmean | 0.9 ± 0.16 |
| CCOC(=O)c1nc2cc(Cl)c(Cl)cc2nc1N1CCN(C(=O)Nc2ccc(N3CCNCC3)cc2)CC1 | H&E staining | mouse, DSS-induced colitis, colon | intraperitoneal, 10 or 5 mg/kg/day |  | colon histopathology damage | decreased |
| O=C(NCCN1C(=O)C=CC1=O)[O][Pt-2]12([O]C(=O)NCCN3C(=O)C=CC3=O)([NH2+][C@@H]3CCCC[C@H]3[NH2+]1)[O]C(=O)C(=O)[O]2 | H&E histology | BALB/c mouse CT26 allograft, tumour | dose not given, day 12 |  | mitotic cell fraction reduction | ~50% |
| COc1ccc2c(c1)c(CC(=O)OCOC(C)=O)c(C)n2C(=O)c1ccc(Cl)cc1 | hot plate test | BALB/c mice | 100 mg/kg, 120 min |  | latency of nociceptive response | 16.8 ± 1.05 s |
| COc1ccc(C2CC(c3ccc(C)cc3)=Nc3ccccc3S2)cc1 (stereo not shown) |  | Wistar rat, STZ-induced diabetes, serum | 20 mg/kg, 28 days |  | triglycerides | 113 ± 4.15 mg/dL |
| CSCC[C@H](NC(=O)[C@H](CO)NC(=O)[C@@H](N)CO)C(=O)N[C@@H](CCCCN)C(=O)N[C@@H](CC(C)C)C(=O)N[C@@H](CO)C(=O)N[C@@H](Cc1ccccc1)C(=O)N[C@@H](CCCNC(=N)N)C(=O)N[C@@H](C)C(=O)N[C@@H](CCCNC(=N)N)C(=O)N[C@@H](C)C(=O)N[C@@H](Cc1ccc(O)cc1)C(=O)NCC(=O)N[C@@H](Cc1ccccc1)C(=O)N[C@@H](CCCNC(=N)N)C(=O)NCC(=O)N1CCC[C@H]1C(=O)NCC(=O)N1CCC[C@H]1C(=O)N[C@@H](CCC(N)=O)C(=O)N[C@@H](CC(C)C)C(=O)O |  | fed NCD wild-type mouse, plasma | dose not given, chronic treatment |  | plasma glucagon level | no effect |
| O=c1c(OCc2ccccc2)c(-c2ccc(Cl)cc2)oc2ccccc12 |  | diabetic rat | 7.5 mg/kg, day 21, p-nitrophenyl β-glucoside induced |  | blood glucose | 191 ± 5.32 mg/dL |
| Nc1nc2cc(CC[C@H]3C[C@@H](n4ccc5c(N)ncnc54)[C@H](O)[C@@H]3O)ccc2cc1Br | inhibitor, measured: SmD1/3 dimethylarginine | mice, NCI-H1048 xenograft, tumour | 10 mg/kg, after stop of treatment |  | recovery time | 6 days |
| CN(C)c1ccc(-c2oc3ccccc3c(=O)c2OCc2ccccc2)cc1 |  | diabetic rat | 7.5 mg/kg, day 21, p-nitrophenyl β-glucoside induced |  | blood glucose | 165 ± 4.42 mg/dL |
| CCOc1ccc(C[C@@H]2NC(=O)[C@@H](N)CSSC[C@@H](C(=O)N3CCC[C@H]3C(=O)N[C@@H](CC(C)C)C(=O)NCC(N)=O)NC(=O)[C@H](CC(N)=O)NC(=O)[C@H](CCC(N)=O)NC(=O)[C@H]([C@@H](C)CC)NC2=O)cc1 | antagonist | Bufo marinus urinary bladder | added: deamino-oxytocin |  | pA2 | 6.81 |
| O=C1/C(=C/c2ccc(O)c(O)c2)Oc2c1c(O)cc1oc3cc(O)c(O)cc3c21 | DPPH scavenging, absorbance |  |  |  | EC50 | 110 µM |
| CC[C@H]1[C@@H](O)[C@@H]2[C@H](CC[C@]3(C)[C@@H]([C@H](C)CCOS(=O)(=O)[O-])CC[C@@H]23)[C@@]2(C)CC[C@@H](O)C[C@@H]12.[Na+] | immunohistochemistry, measured: lipid | ob/ob NASH mouse model, liver | 3.0 mg/kg, 16 weeks |  | fractional area | 29.4 ± 1.3% |
| COc1ccc(C2CC(c3ccc(C)cc3)=Nc3ccccc3S2)cc1OC (stereo not shown) |  | Wistar rat, STZ-induced diabetes | oral, 20 mg/kg once daily, day 14 |  | blood glucose | 155 mg/dL |

| SMILES | test | system | conditions | how to read | measurement | value |
| --- | --- | --- | --- | --- | --- | --- |
| COC(=O)C=CCCC(NC(=O)c1ccncc1C(=O)O)C(=O)NC(C(=O)N1CC(=O)CC1C(=O)NC(C(=O)NC(C(N)=O)C1CCCCC1)C1CCCCC1)C(C)(C)C (stereo not shown) |  | New Zealand White rabbit | dose not given, 135 min, venous stasis |  | thrombus weight | 29 ± 6 mg |
| CN1CCC[C@]1(C)/C=C/S(=O)(=O)NC(=O)Nc1c2c(cc3c1CCC3)CCC2 | IL-1β release | human, whole blood ex vivo | oral, 100 mg, 36 h after last dose, multiple ascending dose, added: LPS and ATP |  | inhibition | ~90% |
| Cc1cc(O)c(C=O)c2c1C(=O)Oc1c(CO)c(O)c3c(c1O2)C(O)OC3=O (stereo not shown) | mating test | rat male, streptozotocin diabetic | 5 mg/kg |  | male fertility | 65% |
| COc1ccc(-c2oc3ccccc3c(=O)c2OCc2ccccc2)cc1 |  | diabetic rat | 5 mg/kg, day 28, p-nitrophenyl β-glucoside induced |  | blood glucose | 126 ± 4.91 mg/dL |
| c1ccc(-n2c(-c3ccco3)nc3ccccc32)cc1 | ABTS scavenging, absorbance |  |  |  | IC50 | 1.62 µM |
| Cc1cc2c(cc1C1(c3ncc(C(=O)O)cn3)CC1)C(C)(C)CCC2(C)C | RNA sequencing, measured: Aurkb mRNA | rat, brain | dose not given, 24 h, single dose | reference: vehicle | log2 fold change | 0.25 |
| CSCC[C@@H]1NC(=O)[C@H](CCCCN)NC(=O)[C@H]([C@@H](C)O)NC(=O)[C@H](CCCCN)NC(=O)[C@H](CC(C)C)NC(=O)[C@H](CCCCN)NC(=O)[C@H](CCCNC(=N)N)NC(=O)[C@@H]2CSSC[C@@H]3NC(=O)[C@@H]4CCCN4C(=O)[C@H](C(C)C)NC(=O)[C@H](CCC(N)=O)NC(=O)[C@H](CCC(N)=O)NC(=O)CNC(=O)[C@H](CC(C)C)NC(=O)[C@@H]4CSSC[C@H](NC(=O)[C@H]([C@@H](C)O)NC(=O)[C@H](C)NC(=O)[C@H](CSSC[C@@H](C(=O)N[C@@H](CO)C(=O)N[C@@H](CCCNC(=N)N)C(=O)N[C@H](C(N)=O)[C@@H](C)O)NC(=O)[C@@H]5CCCN5C(=O)[C@H](CC(N)=O)NC1=O)NC(=O)[C@@H]1CCCN1C(=O)[C@H](CC(=O)O)NC(=O)[C@H](CSSC[C@H](NC(=O)[C@H](CCCNC(=N)N)NC(=O)[C@H](CCCNC(=N)N)NC(=O)[C@H](CO)NC(=O)[C@@H](N)CO)C(=O)N[C@@H](C(C)C)C(=O)N[C@@H](CCCNC(=N)N)C(=O)N[C@@H](CC(C)C)C(=O)N[C@@H](Cc1c[nH]cn1)C(=O)N[C@@H](CCC(=O)O)C(=O)N[C@@H](CO)C(=O)N4)NC3=O)C(=O)N[C@@H](Cc1ccc(O)cc1)C(=O)N[C@H]1CSSC[C@H](NC(=O)[C@H](Cc3ccccc3)NC(=O)[C@H](C)NC(=O)[C@H](CC(N)=O)NC(=O)[C@H](Cc3ccccc3)NC(=O)[C@H](Cc3ccccc3)NC(=O)[C@H](CCCNC(=N)N)NC1=O)C(=O)N[C@@H](Cc1ccc(O)cc1)C(=O)N2 |  | male Long-Evans rats | intracerebroventricular, 1.0 nmol, day 5 | reference: saline | food intake | 44.5 ± 3.1 % above saline |
| Cc1ccc(-c2oc3ccccc3c(=O)c2OCc2ccccc2)cc1 |  | diabetic rat | 5 mg/kg, day 28, p-nitrophenyl β-glucoside induced |  | blood glucose | 143 ± 4.9 mg/dL |
| O=C(NCc1cc(F)cc(F)c1)[C@@]1(O)CCN(c2ccc3[nH]ccc3c2)C1=O |  | CAKI-1 xenograft, mouse | oral, 25 mg/kg twice daily |  | T/C | 37% |
| COc1cc(CN2CCN(c3ccc(C(F)(F)F)cc3)CC2)c2cc3[n+](cc2c1O)CCc1cc2c(cc1-3)OCO2 | ABTS scavenging, absorbance |  | 10 min |  | IC50 | 8.07 µg/mL |
| Cc1[nH]nc2c1N=C(c1ccccc1Cl)c1cnc(N3CCOCC3)cc1N2 |  | MC-38 syngeneic tumour, mice, tumour | dose not given, monotherapy |  | tumour-associated macrophage infiltration | decreased |
| O=c1c(OCc2ccccc2)c(-c2cccc([N+](=O)[O-])c2)oc2ccccc12 |  | diabetic rat | 7.5 mg/kg, day 21, p-nitrophenyl β-glucoside induced |  | blood glucose | 183 ± 4.63 mg/dL |
| CCc1nnc(NS(=O)(=O)c2ccc(NC(=S)NC(=O)/C=C/c3ccc(F)cc3)cc2)s1 |  | athymic nude mice, SK-N-AS xenograft, tumour | i.p., 20 mg/kg daily, 18 days |  | reduction of CD31-positive vascular area | 87% |
| C[C@@H](O)[C@@H]1NC(=O)[C@H](CCCCN)NC(=O)[C@@H](Cc2ccc(NC(N)=O)cc2)NC(=O)[C@H](Cc2ccc(NC(=O)[C@@H]3CC(=O)NC(=O)N3)cc2)NC(=O)[C@H](NC(=O)[C@H](Cc2ccc(Cl)cc2)NC(=O)CN2CCN(CC(=O)O)CCN(CC(=O)O)CCN(CC(=O)O)CC2)CSSC[C@@H](C(=O)N[C@H](Cc2ccc(O)cc2)C(N)=O)NC1=O [gallium-68 labelled] | PET/CT | neuroendocrine tumour patients, lymph node lesions | 60 min |  | SUVmean | 7 ± 6 |
| COC(=O)[C@H](CSSC(C)(C)[C@H](NC(=O)[C@H](CCC(=O)NC[C@H](O)[C@@H](O)[C@H](O)[C@H](O)CO)NC(=O)[C@H](CCC(=O)O)NC(=O)[C@H](CCC(=O)NC[C@H](O)[C@@H](O)[C@H](O)[C@H](O)CO)NC(=O)[C@H](CCC(=O)O)NC(=O)[C@H](CCC(=O)NC[C@H](O)[C@@H](O)[C@H](O)[C@H](O)CO)NC(=O)CC[C@H](NC(=O)c1ccc(NCc2cnc3nc(N)[nH]c(=O)c3n2)cc1)C(=O)O)C(=O)O)NC(=O)CC[C@H](NC(=O)c1ccc(NCc2cnc3nc(N)nc(N)c3n2)cc1)C(=O)O | flow cytometry | Lewis rat, healthy, blood | 1000 nmol/kg twice weekly × 1 |  | CD172+ CD43− monocyte effect | no effect |
| O=C1/C(=C/c2ccc(O)cc2)Oc2cc(O)c(-c3ccc(O)c(O)c3)c(O)c21 | DPPH scavenging, absorbance |  |  |  | EC50 | 430 µM |
| S=c1n(CN2CCN(c3ccccc3)CC2)nc(C23CC4CC(CC(C4)C2)C3)n1-c1ccccc1 | paw oedema | rat | intraperitoneal, 40 mg/kg |  | inhibition in vivo | 14.1% |
| CCCCCCCOC(=O)Cc1c(C)n(C(=O)c2ccc(Cl)cc2)c2ccc(OC)cc12 | hot plate test | BALB/c mice | 100 mg/kg, 0 min |  | latency of nociceptive response | 10.1 ± 1.02 s |

A few entries again:
| SMILES | test | system | conditions | how to read | measurement | value |
| --- | --- | --- | --- | --- | --- | --- |
| Cc1ccc(C2=C(c3ccc([18F])cc3)C(=O)OC2(C)C)cc1 | PET/CT | mouse, SK-OV-3/COX-1 peritoneal tumour | retro-orbital, 5 min |  | normalized tumour uptake | 25 ± 6 |
| COc1ccc2c(c1)c(CC(=O)OCOC(C)=O)c(C)n2C(=O)c1ccc(Cl)cc1 | hot plate test | BALB/c mice | 100 mg/kg, 120 min |  | latency of nociceptive response | 16.8 ± 1.05 s |
| COc1ccc2c(c1OC)C(C(Cl)(Cl)Cl)N1CCc3cc4c(cc3C1=C2)OCO4 (stereo not shown) |  | rat, STZ-induced diabetic, serum | oral, 12 mg/kg, day 28 |  | urea | 43.2 ± 1.66 mg/dL |
| Cc1[nH]nc2c1N=C(c1ccccc1Cl)c1cnc(N3CCOCC3)cc1N2 |  | MC-38 syngeneic tumour, mice, tumour | dose not given, monotherapy |  | tumour-associated macrophage infiltration | decreased |
